Experimental data from different studies.
Parts stem from different laboratories: compare values within a part only.
UniProt P28223, sequence (whole entry, looked up): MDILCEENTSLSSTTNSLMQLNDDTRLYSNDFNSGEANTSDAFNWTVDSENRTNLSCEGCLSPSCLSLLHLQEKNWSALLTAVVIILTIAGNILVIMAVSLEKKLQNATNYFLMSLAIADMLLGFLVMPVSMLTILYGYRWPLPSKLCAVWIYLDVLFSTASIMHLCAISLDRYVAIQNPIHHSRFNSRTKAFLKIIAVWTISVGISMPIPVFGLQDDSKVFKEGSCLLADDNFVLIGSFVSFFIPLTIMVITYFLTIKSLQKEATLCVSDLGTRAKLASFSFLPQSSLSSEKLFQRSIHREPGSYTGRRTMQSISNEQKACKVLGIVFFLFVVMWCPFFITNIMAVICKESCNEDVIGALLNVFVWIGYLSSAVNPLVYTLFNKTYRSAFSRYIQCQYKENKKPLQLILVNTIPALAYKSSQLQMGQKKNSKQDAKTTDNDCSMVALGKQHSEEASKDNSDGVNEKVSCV
UniProt P41145, sequence (whole entry, looked up): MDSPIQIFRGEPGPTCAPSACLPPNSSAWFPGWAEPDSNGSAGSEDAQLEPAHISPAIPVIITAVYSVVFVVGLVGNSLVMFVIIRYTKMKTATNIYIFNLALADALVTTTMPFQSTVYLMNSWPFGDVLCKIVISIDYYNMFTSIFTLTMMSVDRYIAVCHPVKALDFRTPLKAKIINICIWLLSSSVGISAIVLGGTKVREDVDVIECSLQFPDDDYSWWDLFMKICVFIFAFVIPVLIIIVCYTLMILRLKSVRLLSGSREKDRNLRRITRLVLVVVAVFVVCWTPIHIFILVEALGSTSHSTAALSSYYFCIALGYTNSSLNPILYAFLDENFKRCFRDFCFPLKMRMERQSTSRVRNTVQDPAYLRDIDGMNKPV
UniProt P21918, sequence (whole entry, looked up): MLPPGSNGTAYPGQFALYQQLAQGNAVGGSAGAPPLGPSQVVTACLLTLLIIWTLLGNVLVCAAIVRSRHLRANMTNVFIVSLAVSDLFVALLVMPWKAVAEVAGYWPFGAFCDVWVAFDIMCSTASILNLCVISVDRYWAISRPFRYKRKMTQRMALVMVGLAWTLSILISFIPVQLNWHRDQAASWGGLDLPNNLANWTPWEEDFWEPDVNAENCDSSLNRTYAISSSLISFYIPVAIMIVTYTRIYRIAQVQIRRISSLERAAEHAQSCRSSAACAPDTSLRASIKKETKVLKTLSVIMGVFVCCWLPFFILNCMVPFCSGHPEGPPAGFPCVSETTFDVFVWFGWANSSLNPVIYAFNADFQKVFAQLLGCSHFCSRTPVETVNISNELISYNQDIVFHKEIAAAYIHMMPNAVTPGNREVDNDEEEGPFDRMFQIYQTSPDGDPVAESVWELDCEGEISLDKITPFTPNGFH
UniProt P41143, sequence (whole entry, looked up): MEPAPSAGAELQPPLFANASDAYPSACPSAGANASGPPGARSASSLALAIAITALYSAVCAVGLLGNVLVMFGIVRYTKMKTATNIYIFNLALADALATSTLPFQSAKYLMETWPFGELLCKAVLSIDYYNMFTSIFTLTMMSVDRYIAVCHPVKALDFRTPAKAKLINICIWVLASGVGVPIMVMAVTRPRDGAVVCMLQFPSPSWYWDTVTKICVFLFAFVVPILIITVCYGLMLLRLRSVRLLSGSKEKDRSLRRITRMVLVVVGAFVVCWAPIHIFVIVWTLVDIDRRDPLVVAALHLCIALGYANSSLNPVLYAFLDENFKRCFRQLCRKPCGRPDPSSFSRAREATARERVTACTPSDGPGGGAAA
UniProt P35372, sequence (whole entry, looked up): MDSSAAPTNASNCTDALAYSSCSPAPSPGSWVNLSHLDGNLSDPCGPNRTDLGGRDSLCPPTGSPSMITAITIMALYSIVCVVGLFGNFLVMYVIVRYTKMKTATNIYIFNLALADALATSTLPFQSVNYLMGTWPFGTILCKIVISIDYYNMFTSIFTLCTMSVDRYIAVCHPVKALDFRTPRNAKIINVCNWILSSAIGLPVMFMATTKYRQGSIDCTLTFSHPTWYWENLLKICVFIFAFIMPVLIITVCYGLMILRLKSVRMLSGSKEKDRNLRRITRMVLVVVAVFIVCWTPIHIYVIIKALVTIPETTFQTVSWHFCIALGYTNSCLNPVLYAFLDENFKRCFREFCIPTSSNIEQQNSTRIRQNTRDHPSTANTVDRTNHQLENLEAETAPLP
UniProt P20309, sequence (whole entry, looked up): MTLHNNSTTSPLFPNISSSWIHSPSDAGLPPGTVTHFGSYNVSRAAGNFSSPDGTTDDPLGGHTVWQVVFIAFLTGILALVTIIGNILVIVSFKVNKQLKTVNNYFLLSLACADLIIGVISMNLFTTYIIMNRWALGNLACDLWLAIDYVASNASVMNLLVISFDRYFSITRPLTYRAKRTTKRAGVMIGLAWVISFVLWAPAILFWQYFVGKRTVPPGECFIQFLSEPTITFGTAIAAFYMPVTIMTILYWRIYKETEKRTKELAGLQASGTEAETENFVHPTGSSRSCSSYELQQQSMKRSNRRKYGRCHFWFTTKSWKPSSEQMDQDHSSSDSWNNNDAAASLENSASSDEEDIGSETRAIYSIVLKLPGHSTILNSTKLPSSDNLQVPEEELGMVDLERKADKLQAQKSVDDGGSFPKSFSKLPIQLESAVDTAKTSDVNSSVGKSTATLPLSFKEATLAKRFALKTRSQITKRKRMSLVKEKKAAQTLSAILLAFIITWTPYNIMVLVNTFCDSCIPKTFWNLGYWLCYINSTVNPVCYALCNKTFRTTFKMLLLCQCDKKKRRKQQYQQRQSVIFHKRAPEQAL

Study 1 — target: vesicular stomatitis virus glycoprotein; observed: viral entry; method: VSVΔG-G pseudovirus; concentration: 10 µM
Compound	inhibition
O=C(/C=C/S/C=C/C(=O)c1ccc(F)cc1)c1ccc(F)cc1	-0.7%
Cc1ccccc1CN1C[C@@H]2C[C@@H](c3cc4ccccc4o3)N3CCC[C@@]23C1=O	25%
O=C(c1ccc(-c2ccnc3[nH]ccc23)o1)N1CCCCC1	-4.3%
COc1cccc(C(=O)N/N=C(\C)c2ccccc2O)c1	35%
CCC(NC(=O)Nc1cccc(C)c1C)c1c(-n2cccc2)sc2c1CCN(C)C2 (stereo not shown)	10%
Cc1sc2nc(CN3CCCC3)nc(Sc3nnnn3C3CCCC3)c2c1C	21%
C=C(C#N)CN1CCN(CC(=C)C#N)CC1	17%
c1ccc(-c2cnc3ccccc3c2)c(OCCn2ccnc2)c1	1.4%

Study 2 — observed: cell-free assay; concentration: 10 µM
Structure (SMILES): CS(=O)(=O)c1cc(C2(NC(=O)c3cncc4c3cnn4-c3ccc(F)cc3)CC2)ccn1
target	inhibition [%]
5-hydroxytryptamine receptor 2A (HTR2A, Homo sapiens, UniProt P28223)	20.4
Delta-type opioid receptor (OPRD1, Homo sapiens, UniProt P41143)	-5.92
D(1B) dopamine receptor (DRD5, Homo sapiens, UniProt P21918)	-0.37
Muscarinic acetylcholine receptor M3 (CHRM3, Homo sapiens, UniProt P20309)	22
Mu-type opioid receptor (OPRM1, Homo sapiens, UniProt P35372)	-7.9
Kappa-type opioid receptor (OPRK1, Homo sapiens, UniProt P41145)	1.68

Study 3 — observed: enzyme activity; mode: inhibitor; method: radiometric; concentration: 0.5 µM
Target: Dual specificity tyrosine-phosphorylation-regulated kinase 1B (DYRK1B, Homo sapiens, UniProt Q9Y463)
SMILES	remaining activity
NC(=O)c1cccc(-c2cc(Nc3ccc(OC(F)(F)F)cc3)ncn2)c1	97.9%
CCCCc1c(-c2ccc(O)cc2)[nH]c2nccnc12	73.3%
CNc1cc2c(Nc3cccc(Br)c3)ncnc2cn1	92.3%
COc1cc2c(Nc3ccc(Br)cc3F)ncnc2cc1OCC1CCN(C)CC1	93%
O=Nc1c(-c2c(O)[nH]c3ccccc23)[nH]c2ccccc12	84.7%
C[C@@H](N)[C@H]1CC[C@H](C(=O)Nc2ccncc2)CC1	92.5%

Study 4 — observed: enzyme activity; mode: inhibitor; concentration: 10 µM
Target: Calcium/calmodulin-dependent protein kinase type II subunit alpha (CAMK2A, Homo sapiens, UniProt Q9UQM7)
UniProt Q9UQM7, sequence (whole entry, looked up): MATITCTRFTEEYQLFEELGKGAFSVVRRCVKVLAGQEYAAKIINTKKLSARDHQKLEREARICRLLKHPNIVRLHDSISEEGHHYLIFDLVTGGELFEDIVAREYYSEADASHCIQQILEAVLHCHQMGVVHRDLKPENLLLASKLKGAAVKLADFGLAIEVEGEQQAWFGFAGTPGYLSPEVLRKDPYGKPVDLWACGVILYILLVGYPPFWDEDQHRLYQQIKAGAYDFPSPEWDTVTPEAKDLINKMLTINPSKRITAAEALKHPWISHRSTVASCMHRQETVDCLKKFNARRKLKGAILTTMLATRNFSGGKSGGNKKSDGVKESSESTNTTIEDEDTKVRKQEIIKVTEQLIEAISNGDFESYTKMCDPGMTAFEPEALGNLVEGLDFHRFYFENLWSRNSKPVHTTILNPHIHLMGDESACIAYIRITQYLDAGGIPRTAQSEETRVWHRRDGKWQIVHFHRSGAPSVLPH
SMILES	inhibition
CC[C@@H]1CN2CC[C@@]3(C(=O)Nc4ccccc43)[C@@H]2C[C@@H]1/C(=C\OC)C(=O)OC	-12%
NC(N)=NOCC[C@H](N)C(=O)O	8%
COc1ccc2c(c1OC)CC1c3c(cc4c(c3-2)OCO4)CCN1C (stereo not shown)	-17%
CC1(C)[C@H]2O[C@H]2[C@H]2[C@](C)(O)[C@@H]3CC[C@@H]4[C@@H](O)[C@@]3(C[C@@H](O)[C@@]21O)C[C@@]4(C)O	-21%
CN1CCc2cc3c(cc2C1O)OCO3 (stereo not shown)	27%

For quick reference, copied from above (study 4):
SMILES	inhibition
CC[C@@H]1CN2CC[C@@]3(C(=O)Nc4ccccc43)[C@@H]2C[C@@H]1/C(=C\OC)C(=O)OC	-12%
NC(N)=NOCC[C@H](N)C(=O)O	8%
COc1ccc2c(c1OC)CC1c3c(cc4c(c3-2)OCO4)CCN1C (stereo not shown)	-17%
